Published values gathered from unrelated publications.
Each numbered part is a random draw from the data of one study; scales do not carry over between parts.

Block 1 — method: universal PBM; form: double-stranded DNA, one strand shown; medium: in vitro; tested at: not given; reading: higher = stronger binding
Target: Sal-like protein 4, full length isoform B (SALL4, Homo sapiens, UniProt Q9UJQ4-2, residues 1-616)
Notes: 8-mer, flanks averaged, mean of replicates
Residues (chain): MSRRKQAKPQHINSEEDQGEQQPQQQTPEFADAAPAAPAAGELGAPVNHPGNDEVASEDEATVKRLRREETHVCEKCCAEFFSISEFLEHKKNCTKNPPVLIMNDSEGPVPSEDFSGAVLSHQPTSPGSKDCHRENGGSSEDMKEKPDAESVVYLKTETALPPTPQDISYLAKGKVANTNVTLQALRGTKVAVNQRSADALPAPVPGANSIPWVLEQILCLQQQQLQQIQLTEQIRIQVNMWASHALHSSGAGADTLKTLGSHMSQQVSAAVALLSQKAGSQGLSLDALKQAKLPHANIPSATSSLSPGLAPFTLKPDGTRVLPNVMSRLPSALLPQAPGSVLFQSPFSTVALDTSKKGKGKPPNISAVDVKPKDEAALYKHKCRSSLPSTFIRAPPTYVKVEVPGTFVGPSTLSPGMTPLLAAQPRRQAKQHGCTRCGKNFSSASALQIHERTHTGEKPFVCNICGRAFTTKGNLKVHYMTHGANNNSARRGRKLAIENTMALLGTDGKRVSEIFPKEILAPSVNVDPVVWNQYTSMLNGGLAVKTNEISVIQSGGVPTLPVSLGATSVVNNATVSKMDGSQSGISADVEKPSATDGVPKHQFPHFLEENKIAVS
| Strand | E-score |
| --- | --- |
| ATCAGTGG | -0.121 |
| CAGAGATG | 0.0579 |
| CACGCTAC | -0.075 |
| AGTCCGCA | -0.191 |
| CGTGGACC | -0.338 |

Block 2 — method: RNA Bind-n-Seq; form: RNA; medium: in vitro; tested at: 365 nM; baseline: no-protein control; reading: higher = stronger binding
Target: RNA binding protein fox-1 homolog 2, RRM domain, GST-SBP tag (RBFOX2, Homo sapiens, UniProt O43251-10, residues 100-194)
Notes: natural RNA segment, single round, ends assumed
All sequences stand within: GGGAGUUCUACAGUCCGACGAUC … UGGAAUUCUCGGGUGCCAA
Residues (chain): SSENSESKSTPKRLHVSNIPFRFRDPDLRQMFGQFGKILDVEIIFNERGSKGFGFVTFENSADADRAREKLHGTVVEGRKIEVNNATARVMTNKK
| Strand | RBNS enrichment (R) |
| --- | --- |
| GGCCGUCCAUCCUCGCAUUGCUGUUGAAUGGUGAGCACGUGACCAUGCCGACCACAAAGGUGUCUGCGGAAACUCGAGGACAUUCACCACGAUGAUUUUCCUCUCUUUGA | 0.479 |
| AACUAUCUGUGUUGGGCUUCCCUGACACGGGAGAGGGGCAAGGAUAGACGAUUGACAUGGCACUGAUGGUCAGUUGCCCAGGGAGGCCGCUUACUCUGGAUGCAGAUGGC | 0.493 |
| CCCUGUCCCCAACUCCAUUAUUUAUUUUGGAGCUGCCCCGCCUGGGUGGCAGGACCCCUGGGCCCUGGGGCUGUGGAUCCUGGUUCCCCAUUUGGAAAAUCACCACCUCU | 0.32 |
| CAGGGGCCAUGUCAUGUUAUUGGGACUUGGGGCUAAGUGGGAGGUCCUGUCCUUCCCCUCAUCUCUUCCUGGGGUUUCAAGACCAAAGGCAAUGAGGAGAUACACGAUUC | 0.438 |
| UGUCCUUCCCCCUUCUCUGCUUUGCAGUCCCCAUGGACUCUGGGCAUGGUGCACUGUCGUCUUUGCUCUUCAUUGAGGAUCUUCCACCCACCAUGGUCCCCUCAGUUGCA | 2.27 |

Block 3 — method: protein binding microarray; form: double-stranded DNA, one strand shown; medium: in vitro; tested at: not given; baseline: not given; reading: higher = stronger binding
Target: Histone acetyltransferase KAT6A, winged helix 1, GST fusion (KAT6A, Homo sapiens, UniProt Q92794, residues 1-85)
Notes: 8-mer, flanks averaged, mean of 2 arrays, mostly near background
Residues (chain): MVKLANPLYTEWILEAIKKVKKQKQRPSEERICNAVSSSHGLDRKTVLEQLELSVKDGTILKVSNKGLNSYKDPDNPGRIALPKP
| Strand | E-score |
| --- | --- |
| GAGGAGCA | 0.0503 |
| GCCTGCGC | 0.31 |
| CGCCCACA | 0.0428 |
| CAATCAGG | -0.161 |
| ATGTTCAG | -0.283 |
| AGGTCATC | 0.0874 |
| GATAGTAA | -0.048 |

Other studies, line by line
| Molecule | target | test | system | conditions | scale | measurement | result |
| --- | --- | --- | --- | --- | --- | --- | --- |
| PhoQ, residues 284 288 289 292 302 303 TTCLQL | PhoP, residues 12 14 15 18 19 SMASL (Escherichia coli, UniProt P23836) | Sort-seq, refers to: YFP reporter | E. coli | PhoQ-PhoP variant library, added: 10 µM Mg2+ | baseline: high Mg2+ state, higher = stronger signaling | fold induction | 3.8 |
